Assay results pooled from the literature.
Numbered parts are unrelated; each lists some results of a single study. Changes are numbered by the printed parent chain.

Set 1
Target: Hepatocyte nuclear factor 3-alpha (Foxa1, Mus musculus, UniProt P35582, residues 1-468, full length assumed)
Chain of UniProt P35582 (whole entry, looked up): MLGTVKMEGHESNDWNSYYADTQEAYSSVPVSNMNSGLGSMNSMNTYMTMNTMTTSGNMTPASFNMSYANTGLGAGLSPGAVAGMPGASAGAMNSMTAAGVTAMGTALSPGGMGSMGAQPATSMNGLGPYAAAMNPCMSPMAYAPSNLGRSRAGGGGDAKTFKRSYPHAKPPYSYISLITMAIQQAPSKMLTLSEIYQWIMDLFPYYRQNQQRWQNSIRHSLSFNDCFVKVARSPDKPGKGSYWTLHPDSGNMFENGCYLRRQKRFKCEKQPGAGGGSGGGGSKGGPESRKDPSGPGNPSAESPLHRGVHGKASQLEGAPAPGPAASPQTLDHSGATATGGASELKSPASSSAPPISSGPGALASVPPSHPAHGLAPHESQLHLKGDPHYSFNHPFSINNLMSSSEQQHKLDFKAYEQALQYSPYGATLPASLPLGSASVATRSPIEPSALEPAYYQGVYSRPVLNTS
Method: EMSA with sequencing
Molecule type: double-stranded DNA, one strand shown
Matrix: in vitro
Tested at: 10 and 20 nM
Setting: whole designed probe, mean of two concentrations, ends assumed
Baseline: negative control set to 0
Direction: higher = stronger binding
| Sequence | normalised bound fraction [ratio] |
| --- | --- |
| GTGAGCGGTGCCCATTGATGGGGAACTTTGAAATAGTTCATAATTTTAAAAGCAGCAACACTAACATTGTTCAGATTATTATAAAAGCATATATAAAGTTAGAGGATAGATGTTATATGTAAACATGAAGAAAGACTTAATATTAAATATCTCAGAGTATACACTTTATGAATAGAAATGGTGTATCCTTTTTTCCTAAGGAACGGAAGAAATTCACATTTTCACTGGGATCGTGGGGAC | 0.374 |
| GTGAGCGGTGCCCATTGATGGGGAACGGTGACAAACCCAAGGCTTGTGGGCTCTGCACACCCTCCACAGTCTTTTGTGTGGCCTGTTGGCAGTTTGATTTTTACGTTTTTGGGGGATGTAGATTGCTTTGTCTTTAAGTTTAGATGTCCGGGTTTTGTTGAGGAAAAAGAAACCCACACCAGATTTACAGTCCCCTAGATCCCCCATCTCATTCTGTGCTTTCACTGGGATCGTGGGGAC | -0.0858 |
| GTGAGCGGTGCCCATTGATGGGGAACCTTTTAAATATTTCAAAAACTATAACTTATAGGATTGCCAATAAGTAGAAAACTTAGATACTACCTTTTCCCATCCTTTATTTTATTTCAGTGTAATCTTGGCTTTTATTTAACTATTTATATTTTCTTTAATAAAATTTTTAAGAAATTGTACAGGTTTCATAACATTTTATTGTCATCCTGTGCTTAGATTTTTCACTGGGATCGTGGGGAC | 0.0734 |
| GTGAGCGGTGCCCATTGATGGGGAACTCCACTGGGATAAATTTATTTCATAAATGTCATTTTCTAAAGATAACTTCTTGGTCTCATACTTGGTCTCCAAATCTAAAATAAAACAAGAAAGCAAACACATGCTGTTTTCTTTTACTAAAAGAAGCAACATTTCTAATGTAGAAATAAAAGACAACAAAAGTAATCCTTAACCAAAACTCTAAAATATTGTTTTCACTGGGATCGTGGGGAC | 0.124 |
| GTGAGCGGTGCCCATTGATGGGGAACGGATTAAGTGGGCAGAAATTTTTTAGGAAGAAGTGTAGAAAAAATTCTGAGGCTTTGTCTTTCCAACTAAGATGACTAAAGGGATAATTTCTAAGTAATCTGGGATGCAAGGAACAATTAATTTATTTTTAACCAGAATAGTGATTTAAGTCTAACACGTTCTTGAATAACAATTTTCAAACTCCAGGAAAACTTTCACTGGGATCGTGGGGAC | -0.0736 |

Mixed results
P1: viral docking peptide; KKAKRRLFTISDS; partner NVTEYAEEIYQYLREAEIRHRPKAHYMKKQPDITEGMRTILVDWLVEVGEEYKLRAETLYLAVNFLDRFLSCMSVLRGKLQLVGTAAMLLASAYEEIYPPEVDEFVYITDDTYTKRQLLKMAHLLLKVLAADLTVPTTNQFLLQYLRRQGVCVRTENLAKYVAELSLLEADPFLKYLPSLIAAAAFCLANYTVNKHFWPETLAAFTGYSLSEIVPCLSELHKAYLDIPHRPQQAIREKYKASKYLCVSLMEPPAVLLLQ
| Molecule | target or system | assay | system | conditions | scale | endpoint | result |
| --- | --- | --- | --- | --- | --- | --- | --- |
| ADAR (Homo sapiens, UniProt P55265) | CLTC (Homo sapiens, UniProt Q00610) | cross-linking MS | cell fractions | with: DMTMM |  | cross-linked residues | K1120 to E1187 |
| P1 K1A | CCNA1, cyclin fold, Cln2 fusion (human) | yeast growth competition, sequencing | yeast | weak parent motif | baseline: not given, higher = stronger binding | normalised enrichment score | 0.154 |
| H2AZ1 (Homo sapiens, UniProt P0C0S5) | H2BC21 (Homo sapiens, UniProt Q16778) | cross-linking MS |  | hits only |  | interaction screen | cross-linked |
| H2BC15 (Homo sapiens, UniProt Q99877) | H2AC14 (Homo sapiens, UniProt Q99878) | cross-linking MS |  | hits only |  | interaction screen | cross-linked |
| UTP25 (Homo sapiens, UniProt Q68CQ4) | UTP3 (Homo sapiens, UniProt Q9NQZ2) | cross-linking MS | cell fractions | with: DSSO |  | cross-linked residues | K301 to K209 |

Excerpt of the above (set 1):
| Sequence | normalised bound fraction [ratio] |
| --- | --- |
| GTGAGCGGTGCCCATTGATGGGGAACTTTGAAATAGTTCATAATTTTAAAAGCAGCAACACTAACATTGTTCAGATTATTATAAAAGCATATATAAAGTTAGAGGATAGATGTTATATGTAAACATGAAGAAAGACTTAATATTAAATATCTCAGAGTATACACTTTATGAATAGAAATGGTGTATCCTTTTTTCCTAAGGAACGGAAGAAATTCACATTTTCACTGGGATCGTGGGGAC | 0.374 |
